Assay results pooled from the literature.
Each line is one published result; not all experiments were run side by side. Several values in a cell are separate wells, animals, samples, runs or records. ± gives the spread as reported.
UniProt P31751, sequence (whole entry, looked up): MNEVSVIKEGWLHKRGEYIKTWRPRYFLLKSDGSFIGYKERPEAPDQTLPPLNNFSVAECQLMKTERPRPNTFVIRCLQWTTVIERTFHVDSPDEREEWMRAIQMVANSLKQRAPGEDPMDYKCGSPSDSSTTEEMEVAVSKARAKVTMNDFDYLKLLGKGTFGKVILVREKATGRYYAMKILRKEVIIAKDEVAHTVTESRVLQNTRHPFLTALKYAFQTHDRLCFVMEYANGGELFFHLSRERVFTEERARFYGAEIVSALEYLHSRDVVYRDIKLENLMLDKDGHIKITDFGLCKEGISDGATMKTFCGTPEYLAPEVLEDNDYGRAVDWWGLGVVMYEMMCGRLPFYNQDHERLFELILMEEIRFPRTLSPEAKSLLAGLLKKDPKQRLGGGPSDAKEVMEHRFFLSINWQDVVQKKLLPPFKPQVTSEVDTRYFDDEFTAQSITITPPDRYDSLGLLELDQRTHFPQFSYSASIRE

| SMILES | tested on | assay | test system | conditions | scale | endpoint | result |
| --- | --- | --- | --- | --- | --- | --- | --- |
| C#CCN(C)[C@H](C)Cc1ccccc1 | – | footprint test | MPTP-induced Parkinson's disease mouse model | 10 mg/kg, trial 3 | – | corridor crossing time | 5.59 s and 6.78 s and 5.74 s and 7 s and 4.09 s and 7.38 s and 5.12 s and 4.39 s |
| COc1ccc2[nH]cc(CCN)c2c1 | – | binding, MIDAS equilibrium dialysis LC-MS | A2AR-BRIL thermostabilized | concentration not given | relative to: no-protein control | log2 fold change | 2.38 |
| C[C@H]1CN(c2n[nH]c3nc(N[C@H]4CC[C@H](NS(=O)(=O)CCC(F)(F)F)CC4)ncc23)CCO1 | RAC-beta serine/threonine-protein kinase (AKT2, Homo sapiens, UniProt P31751) | inhibitor, Kinobeads competition profiling | – | 0.032 µM | relative to: vehicle | relative abundance | 1.14 |
| CC(C)CN1CCc2ccc(Br)cc21 | Plasmodium falciparum | – | GB4 | – | – | IC50 | 1.26 µM |
| CNC(C)Cc1ccc2c(c1)OCO2 (stereo not drawn) | – | refers to: body temperature | TAAR1 knock-out mice | i.p., 25 mg/kg, with: methamphetamine 3 mg/kg | relative to: time point -5 | time to significant hyperthermia | 15 min |
| CC(C)C[C@H](CN)CC(=O)O | – | visual analogue scale | healthy male subjects, capsaicin-treated skin | 150 mg | relative to: placebo | VAS pain difference | -9.9% |
| COc1ccc2c3c1O[C@H]1C(=O)CC[C@@]4(O)[C@@H](C2)N(C)CC[C@]314 | – | electronic von Frey | mouse, carrageenan allodynia | intraperitoneal, 1 mg/kg, 10 min | – | paw withdrawal threshold | 2.7 ± 0.3 g |
| Fc1ccc([C@@H]2CCNC[C@H]2COc2ccc3c(c2)OCO3)cc1 | Plasmodium falciparum | – | Dd2 | – | – | IC50 | 12.6 µM |
| CN[C@@H](C)Cc1ccccc1 | – | refers to: body temperature | TAAR1 knock-out mice | i.p., 3 mg/kg, with: MDMA 25 mg/kg | relative to: time point -5 | time to significant hyperthermia | 30 min |
| C#CCN(C)[C@H](C)Cc1ccccc1 | – | passive avoidance acquisition | APP/PS1 mice | oral, 10 mg/kg, 72 h, 3 days treatment | – | step-through latency | 33.5 ± 7.61 s |
| CNC1(c2ccccc2Cl)CCCCC1=O (racemic) | – | forced swim test | BALB/cJ mice | intraperitoneal, 10 mg/kg single, 24 h | relative to: vehicle | immobility duration | decreased |
| COC(=O)[C@H]1[C@@H](OC(=O)c2ccccc2)C[C@@H]2CC[C@H]1N2C | – | – | mouse, nucleus accumbens | i.p., 20 mg/kg, single injection | – | dopamine signal | increased |

Some of these lines once more:
| SMILES | tested on | assay | test system | conditions | scale | endpoint | result |
| --- | --- | --- | --- | --- | --- | --- | --- |
| C#CCN(C)[C@H](C)Cc1ccccc1 | – | passive avoidance acquisition | APP/PS1 mice | oral, 10 mg/kg, 72 h, 3 days treatment | – | step-through latency | 33.5 ± 7.61 s |
| COc1ccc2c3c1O[C@H]1C(=O)CC[C@@]4(O)[C@@H](C2)N(C)CC[C@]314 | – | electronic von Frey | mouse, carrageenan allodynia | intraperitoneal, 1 mg/kg, 10 min | – | paw withdrawal threshold | 2.7 ± 0.3 g |
